Results from different studies.
Each line is one published result; not all experiments were run side by side.

Compound	medium	concentration	with	half-life
CSc1cc(NC(=O)c2ccccn2)ccc1Cl	rat liver microsomes	–	–	6.54 min
CCOc1ccccc1Nc1nnc(SCC(=O)Nc2cc(F)ccc2F)s1	PBS	–	–	> 450 min
Cc1c(-c2ccccc2)nn2c(=O)cc(-c3cccc(-c4nnn[nH]4)c3)[nH]c12	human liver microsomes	1 µM	–	180 min
Cc1ccccc1OCCCSCc1nc2ccccc2[nH]1	human liver microsomes 0.5 mg/mL	10 µM	–	6.06 min
O=C(O)c1cccc(-c2nc(-c3ccccc3F)c3sccn23)c1	mouse liver microsomes	1 µM	–	22.7 min
CC(=O)N1CC=C(c2cc3c(Nc4cc5ncsc5cc4F)ncnc3s2)CC1	human liver microsomes	1 µM	–	116 min
COc1ccc(CC(=O)OCc2ccc(-n3cccn3)cc2)cc1F	human plasma	–	–	> 150 min
O=C(CC1Cc2ccccc2C1)N[C@H](CN1CCC1)[C@H](O)c1ccc(OC(F)(F)F)cc1	mouse liver microsomes	1 µM	–	> 60 min
COc1ccc2c(c1)CN(C(=O)OC(C(F)(F)F)C(F)(F)F)C2	mouse liver microsomes	–	NADPH	5 min
Cc1n[nH]c(C)c1CCOC(=O)c1cccc2c1oc(=O)n2C	PBS	–	–	> 300 min

Repeated from above:
Compound	medium	concentration	with	half-life
CCOc1ccccc1Nc1nnc(SCC(=O)Nc2cc(F)ccc2F)s1	PBS	–	–	> 450 min
